Measurements from different studies.
A part holds a random share of what one study measured. Positions count from the first letter of the parent shown.

Series 1
Target: ABI1, truncated, D143A, DHFR fusion (Arabidopsis thaliana)
Method: DHFR PCA, deep sequencing
Sample: yeast
Setting: methotrexate growth selection, single substitutions
With: (+)-ABA 0.0091 µM
Reference: wild-type fitted maximum
Direction: higher = stronger binding
Parent: PYL1, truncated, DHFR fusion (Arabidopsis thaliana); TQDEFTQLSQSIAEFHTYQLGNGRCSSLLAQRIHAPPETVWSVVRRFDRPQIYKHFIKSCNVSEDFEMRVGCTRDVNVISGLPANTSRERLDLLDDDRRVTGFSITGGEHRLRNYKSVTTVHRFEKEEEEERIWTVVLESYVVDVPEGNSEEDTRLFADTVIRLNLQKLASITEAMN
Under “relative binding score”, `Q19D` is recorded as 52.8%.
`E128H` — result for “relative binding score”: 30.8%.
`N77K` — result for “relative binding score”: 50.5%.
`L20H` — result for “relative binding score”: 54.7%.
For `K116Y`, “relative binding score” read 0.267%.
`F56W`: “relative binding score” 1.55%.
`Q51C` — result for “relative binding score”: -0.192%.
`P50I` — result for “relative binding score”: -2.02%.
Under “relative binding score”, `D65H` is recorded as 11.2%.
For `N165V`, “relative binding score” read 0.627%.
`L82K` — result for “relative binding score”: -2.31%.
Under “relative binding score”, `A13Y` is recorded as 5.07%.
`K58I` — result for “relative binding score”: 5.7%.
For `T120W`, “relative binding score” read -4%.
`D95E` — result for “relative binding score”: -2.53%.
Under “relative binding score”, `I12V` is recorded as 7.07%.

Series 2
Target: CCNA1, cyclin fold, Cln2 fusion (human)
Method: yeast growth competition, sequencing
Sample: yeast
Setting: weak parent motif
Reference: not given
Direction: higher = stronger binding
Parent: CDKN1A docking peptide (human); SKACRRLFGPVDS
`SKACRGLFGPVDS [R6G]`: “normalised enrichment score” -0.127.
For `SKACRRYFGPVDS [L7Y]`, “normalised enrichment score” read 0.374.
For `SKACTRLFGPVDS [R5T]`, “normalised enrichment score” read -0.102.
`SKACKRLFGPVDS [R5K]`: “normalised enrichment score” 0.316.
Under “normalised enrichment score”, `SKKCRRLFGPVDS [A3K]` is recorded as 0.016.
Under “normalised enrichment score”, `SKACRRLFGPVWS [D12W]` is recorded as 0.0618.
For `SKACLRLFGPVDS [R5L]`, “normalised enrichment score” read 0.0031.
For `SKACRREFGPVDS [L7E]`, “normalised enrichment score” read -0.119.
`SKACRRLFGPHDS [V11H]` — result for “normalised enrichment score”: 0.301.
`SKAERRLFGPVDS [C4E]`: “normalised enrichment score” -0.166.
Under “normalised enrichment score”, `SKACRRTFGPVDS [L7T]` is recorded as 0.64.
`SKACRRLFGYVDS [P10Y]`: “normalised enrichment score” 0.132.
`SKACRRLPGPVDS [F8P]`: “normalised enrichment score” -0.157.
Under “normalised enrichment score”, `SKACRCLFGPVDS [R6C]` is recorded as 0.401.
Under “normalised enrichment score”, `SKACRRLQGPVDS [F8Q]` is recorded as 0.0482.
Under “normalised enrichment score”, `SKACRRLFGAVDS [P10A]` is recorded as 0.43.
`SKACRRLFQPVDS [G9Q]` — result for “normalised enrichment score”: 0.567.
For `SKACRRLFWPVDS [G9W]`, “normalised enrichment score” read 0.627.
Under “normalised enrichment score”, `SKACRRLFGPVYS [D12Y]` is recorded as 0.318.
For `SKACRRLFGLVDS [P10L]`, “normalised enrichment score” read -0.101.
`SKACRRLFAPVDS [G9A]`: “normalised enrichment score” 0.661.
Under “normalised enrichment score”, `SKACRRIFGPVDS [L7I]` is recorded as 0.137.
Under “normalised enrichment score”, `SKACRWLFGPVDS [R6W]` is recorded as -0.286.
Under “normalised enrichment score”, `SKACARLFGPVDS [R5A]` is recorded as -0.0246.
`SKACRRLFGPNDS [V11N]`: “normalised enrichment score” 0.867.

Series 3
Target: Prothrombin, mature alpha-thrombin (F2, Homo sapiens, UniProt P00734)
Method: aptamer microarray, sandwich
Form: DNA with 2'F-ANA
Sample: in vitro
Concentration: 200 nM
Setting: whole 15-mer aptamer, many near background
With: Cy3 exosite-II aptamer, 400 nM
Direction: higher = stronger binding
Sequence: GGTTGGTGTGGTTGG
`2'F-ANA at 2 3 4 7 10 12 14 15` — result for “mean fluorescence intensity”: 243 a.u.
`2'F-ANA at 2 5 7 9 10 12 14 15` — result for “mean fluorescence intensity”: 203 a.u.
`2'F-ANA at 1 2 6 8 9 10 12 14 15`: “mean fluorescence intensity” 51.4 a.u.
For `2'F-ANA at 2 3 5 8 9 11 12 13 15`, “mean fluorescence intensity” read 131 a.u.
Under “mean fluorescence intensity”, `2'F-ANA at 2 3 4 5 6 7 8 9 11 12 13 14 15` is recorded as 54.1 a.u.
Under “mean fluorescence intensity”, `2'F-ANA at 1 8 9 12` is recorded as 435 a.u.
For `2'F-ANA at 1 2 4 7 9 10 11 12 14`, “mean fluorescence intensity” read 46.5 a.u.
`2'F-ANA at 1 4 6 7 9 10 12 14 15`: “mean fluorescence intensity” 46.4 a.u.
For `2'F-ANA at 5 8 12`, “mean fluorescence intensity” read 186 a.u.
`2'F-ANA at 1 2 4 5 9 11 13 14 15`: “mean fluorescence intensity” 50.4 a.u.
`2'F-ANA at 2 4 5 6 10 11 12 13 15`: “mean fluorescence intensity” 47.7 a.u.
Under “mean fluorescence intensity”, `2'F-ANA at 4 6 8 10 13 14` is recorded as 66 a.u.
`2'F-ANA at 2 4 9 10 14 15`: “mean fluorescence intensity” 63.2 a.u.
Under “mean fluorescence intensity”, `2'F-ANA at 1 4 5 6 7 9 11 12 14 15` is recorded as 47.4 a.u.
For `2'F-ANA at 1 2 3 4 6 7 8 9 10`, “mean fluorescence intensity” read 81.1 a.u.
`2'F-ANA at 1 3 4 6 7 8 10 12 14` — result for “mean fluorescence intensity”: 54.3 a.u.
For `2'F-ANA at 1 2 4 7 14 15`, “mean fluorescence intensity” read 54.4 a.u.
`2'F-ANA at 3 4 5 7 9 11 12` — result for “mean fluorescence intensity”: 169 a.u.
`2'F-ANA at 5 6 8 13 14`: “mean fluorescence intensity” 42.8 a.u.
`2'F-ANA at 2 4 5 6 8 9 11 14`: “mean fluorescence intensity” 50.9 a.u.
`2'F-ANA at 1 2 3 7 8 11 12 14 15`: “mean fluorescence intensity” 126 a.u.
Under “mean fluorescence intensity”, `2'F-ANA at 3 6 7 8 9 12 13 14 15` is recorded as 626 a.u.
Under “mean fluorescence intensity”, `2'F-ANA at 3 4 5 11 12 13 14 15` is recorded as 53 a.u.

Series 4
Target: Interferon regulatory factor 7, full length, phosphomimetic (IRF7, Homo sapiens, UniProt Q92985, residues 1-503, S101K/S471D/S472D/S475D/S476D/S477D/S483D/S484D/S487D)
Method: protein-binding microarray
Form: double-stranded DNA, one strand shown
Sample: in vitro
Concentration: 250 nM
Setting: 60-bp whole probe
With: salmon DNA 0.4 mg/ml
Reference: random background probes
Direction: higher = stronger binding
Shared flanks, not repeated: GCCTAGCAC … GTCTTGATTCGCTTGACGCTGCTG
Residues (chain): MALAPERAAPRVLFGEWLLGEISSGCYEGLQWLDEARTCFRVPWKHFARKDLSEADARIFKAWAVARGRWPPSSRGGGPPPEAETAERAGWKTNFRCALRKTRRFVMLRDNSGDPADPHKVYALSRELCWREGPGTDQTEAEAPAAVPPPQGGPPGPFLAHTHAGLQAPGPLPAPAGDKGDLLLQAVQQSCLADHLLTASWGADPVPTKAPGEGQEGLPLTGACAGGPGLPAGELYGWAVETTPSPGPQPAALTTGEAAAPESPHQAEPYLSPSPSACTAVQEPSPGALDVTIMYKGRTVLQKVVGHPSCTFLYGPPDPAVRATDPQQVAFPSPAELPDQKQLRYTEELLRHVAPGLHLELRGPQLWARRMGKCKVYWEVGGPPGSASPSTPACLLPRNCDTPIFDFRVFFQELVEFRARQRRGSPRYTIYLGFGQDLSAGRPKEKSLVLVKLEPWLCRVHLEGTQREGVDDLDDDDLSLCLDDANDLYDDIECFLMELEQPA
`TTAGAACTGGGACTGGATTAGTGCTAG` gave a log fluorescence of -0.157 z-score.
For `GGGATGGTGGGGCTCCTCCTGTGCTAG`, the log fluorescence was -0.408 z-score.
`CACGGACTGCTTTTCCTGACGTGCTAG` has a log fluorescence of -0.0646 z-score.
`TCATCTTTATGCACTCTTACTGTGCTA` has a log fluorescence of 0.214 z-score.
`CAGGTTTCTGATGGGCCTAGGTGCTAG` gave a log fluorescence of 3.09 z-score.
`TCAAGTTTCTCCTTTGTACTGTGCTAG` has a log fluorescence of 2.02 z-score.
`GACGAACTGAGTCTCGAGCCGTGCTAG` gave a log fluorescence of -0.00277 z-score.
The log fluorescence of `TTAGGACTGGACACTGAGTTAGTGCTA` is reported as -0.362 z-score.
`GCCACTTTCCATTTCTGTTTGTGCTAG` has a log fluorescence of 2.92 z-score.
The log fluorescence of `TTAGATCTCGGTTTCGATTAGTGCTAG` is reported as 9.01 z-score.
`GACGGTCTCCTTTCCCTGACGTGCTAG` gave a log fluorescence of 0.609 z-score.
For `GGTACTCACCTCCAGGCTGAGTGCTAG`, the log fluorescence was -0.133 z-score.
`CAGAAGTTCATGTTCAACCAGTGCTAG` gave a log fluorescence of -0.455 z-score.
With `TTCGGACTGGGTTTCGGTTAGTGCTAG` the log fluorescence was 6.13 z-score.
For `CTAGGACTGGACTTTCGGTTAGTGCTA`, the log fluorescence was 0.46 z-score.
With `GACGGTATCGGACTGGGGAGGTGCTAG` the log fluorescence was -0.297 z-score.
The log fluorescence of `GACGGTTTCGGACTGGGGCCGTGCTAG` is reported as 3.32 z-score.
With `TTAGATTTCAGTCTCGCTTAGTGCTAG` the log fluorescence was 1.51 z-score.
With `TCATGTTTCCATTTTCTACTGTGCTAG` the log fluorescence was 3.87 z-score.

Series 5
Target: Sal-like protein 4, full length isoform A (SALL4, Homo sapiens, UniProt Q9UJQ4, residues 1-1053)
Sequence of UniProt Q9UJQ4 (whole entry, looked up): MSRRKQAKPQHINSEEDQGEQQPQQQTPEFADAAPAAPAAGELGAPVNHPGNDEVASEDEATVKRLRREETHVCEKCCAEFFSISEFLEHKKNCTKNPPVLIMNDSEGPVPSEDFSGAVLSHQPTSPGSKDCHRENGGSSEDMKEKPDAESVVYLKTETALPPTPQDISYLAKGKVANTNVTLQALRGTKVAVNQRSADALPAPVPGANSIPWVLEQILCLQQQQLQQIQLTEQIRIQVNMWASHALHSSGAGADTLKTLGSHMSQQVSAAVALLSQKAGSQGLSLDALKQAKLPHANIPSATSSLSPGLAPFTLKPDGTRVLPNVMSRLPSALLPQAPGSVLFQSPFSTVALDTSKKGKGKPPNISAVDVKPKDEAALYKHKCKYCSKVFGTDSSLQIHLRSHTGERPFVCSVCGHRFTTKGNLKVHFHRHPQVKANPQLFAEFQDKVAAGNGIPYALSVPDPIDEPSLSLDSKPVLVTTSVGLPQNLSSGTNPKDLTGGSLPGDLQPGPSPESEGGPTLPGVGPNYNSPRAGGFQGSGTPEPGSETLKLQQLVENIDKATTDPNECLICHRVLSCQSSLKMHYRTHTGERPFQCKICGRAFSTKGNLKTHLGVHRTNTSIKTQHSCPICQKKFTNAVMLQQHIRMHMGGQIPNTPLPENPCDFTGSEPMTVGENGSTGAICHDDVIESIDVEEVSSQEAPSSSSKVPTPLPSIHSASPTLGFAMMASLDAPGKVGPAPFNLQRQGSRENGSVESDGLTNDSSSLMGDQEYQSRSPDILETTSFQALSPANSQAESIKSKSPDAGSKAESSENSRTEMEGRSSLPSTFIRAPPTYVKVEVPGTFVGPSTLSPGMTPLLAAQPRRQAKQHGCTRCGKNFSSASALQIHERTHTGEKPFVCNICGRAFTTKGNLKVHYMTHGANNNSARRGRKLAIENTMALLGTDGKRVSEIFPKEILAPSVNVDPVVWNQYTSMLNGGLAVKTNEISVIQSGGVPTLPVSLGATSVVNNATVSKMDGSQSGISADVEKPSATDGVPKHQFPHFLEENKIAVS
Method: universal PBM
Form: double-stranded DNA, one strand shown
Sample: in vitro
Concentration: 600 nM
Setting: 8-mer, flanks averaged, mean of replicates
Direction: higher = stronger binding
`ATCTGCTA` has an E-score of 0.126.
With `GATCTGCC` the E-score was -0.139.
With `AATGTAGC` the E-score was 5e-05.
For `ACCACGAG`, the E-score was -0.0896.
With `AGCCGCCC` the E-score was -0.318.
The E-score of `TGGTCACA` is reported as 0.0103.
For `ACTCGAAC`, the E-score was -0.0991.
With `ATAAAGAT` the E-score was 0.318.
The E-score of `GGCGTGTA` is reported as -0.0568.
`ACAGCAAG` gave an E-score of 0.107.
With `ATTAAGAG` the E-score was 0.164.
For `CGCAGGGC`, the E-score was -0.231.
For `AGGTGCCA`, the E-score was -0.196.
`ACGTGACA` gave an E-score of -0.0125.
`AGTCACAA` gave an E-score of 0.0667.
`TAGCCACA` gave an E-score of 0.0121.
For `ATAAGAAA`, the E-score was 0.351.
`GCCAAGCA` has an E-score of -0.184.
With `CGCAATGA` the E-score was 0.138.
`CCGCACGG` has an E-score of -0.302.
`AAGCACGT` gave an E-score of -0.0105.
The E-score of `ATCCGTCC` is reported as -0.0673.
`ACGAAGAA` gave an E-score of 0.246.
For `CACACGGA`, the E-score was -0.229.
With `GACATCCA` the E-score was 0.0161.

Some of these lines once more (series 3):
Under “mean fluorescence intensity”, `2'F-ANA at 2 3 4 5 6 7 8 9 11 12 13 14 15` is recorded as 54.1 a.u.
Under “mean fluorescence intensity”, `2'F-ANA at 1 8 9 12` is recorded as 435 a.u.
For `2'F-ANA at 1 2 4 7 9 10 11 12 14`, “mean fluorescence intensity” read 46.5 a.u.
`2'F-ANA at 1 4 6 7 9 10 12 14 15`: “mean fluorescence intensity” 46.4 a.u.
For `2'F-ANA at 5 8 12`, “mean fluorescence intensity” read 186 a.u.
`2'F-ANA at 1 2 4 5 9 11 13 14 15`: “mean fluorescence intensity” 50.4 a.u.
`2'F-ANA at 2 4 5 6 10 11 12 13 15`: “mean fluorescence intensity” 47.7 a.u.
Under “mean fluorescence intensity”, `2'F-ANA at 4 6 8 10 13 14` is recorded as 66 a.u.
`2'F-ANA at 2 4 9 10 14 15`: “mean fluorescence intensity” 63.2 a.u.
Under “mean fluorescence intensity”, `2'F-ANA at 1 4 5 6 7 9 11 12 14 15` is recorded as 47.4 a.u.
For `2'F-ANA at 1 2 3 4 6 7 8 9 10`, “mean fluorescence intensity” read 81.1 a.u.
